Values quoted from earlier work that unrelated publications cite.
Lines come from different studies, so protocols differ. ± gives the spread as reported.
Sequence of UniProt Q86Y07 (whole entry, looked up): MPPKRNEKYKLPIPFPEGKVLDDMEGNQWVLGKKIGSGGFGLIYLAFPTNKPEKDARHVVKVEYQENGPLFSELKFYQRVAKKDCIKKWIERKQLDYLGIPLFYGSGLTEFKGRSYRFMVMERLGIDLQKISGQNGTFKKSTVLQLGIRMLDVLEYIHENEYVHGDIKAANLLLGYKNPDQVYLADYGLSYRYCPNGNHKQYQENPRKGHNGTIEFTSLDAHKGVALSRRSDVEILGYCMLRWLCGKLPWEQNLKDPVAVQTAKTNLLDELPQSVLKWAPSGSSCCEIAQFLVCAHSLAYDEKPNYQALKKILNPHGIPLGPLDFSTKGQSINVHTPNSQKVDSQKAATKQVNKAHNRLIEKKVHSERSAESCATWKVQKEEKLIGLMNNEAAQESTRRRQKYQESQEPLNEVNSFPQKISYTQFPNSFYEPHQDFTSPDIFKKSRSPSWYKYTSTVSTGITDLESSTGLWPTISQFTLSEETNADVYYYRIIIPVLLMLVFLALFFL

For `C=CC(=O)N1CCC([C@@H]2CCNc3c(C(N)=O)c(-c4ccc(Oc5ccccc5)cc4)nn32)CC1`, the AUC(0-8h) was 0.513 ± 0.282 µg·h/mL (human patients; oral, 80 mg once daily, day 1).
`COc1cc(NC(=O)CCN2CCC(OC(=O)Nc3ccccc3-c3ccccc3)CC2)c(Cl)cc1CNC[C@H](O)c1ccc(O)c2[nH]c(=O)ccc12` has a Tlast of 10 h (human, plasma; inhaled).
With `CCN1CCN(Cc2ccc(Nc3ncc(F)c(-c4cc(F)c5nc(C)n(C(C)C)c5c4)n3)nc2)CC1` the AUC(0-t) was 3.96 µg·h/mL (human; 150 mg single dose, tablet).
`CN1CC(=O)N2[C@H](c3ccc4c(c3)OCO4)c3[nH]c4ccccc4c3C[C@@H]2C1=O` has a terminal half-life of 1.28 ± 0.462 h (rat; oral, 1 mg/kg).
For `CC(C)(c1ccc(O)cc1)c1ccc(O)cc1`, the uptake was 0.196 pmol/embryo (HPLC; zebrafish embryos; waterborne, 4.38 nM, from 4 to 72 hpf).
`Cc1cc(-c2nccc3c2ccn3CC(=O)Nc2ccc(-c3cnccn3)cn2)ccn1` — result for “cardiovascular parameters and body temperature”: “no effect” (dog; oral, up to 200 mg/kg single dose).
For `O=C(O)Cc1ccccc1Nc1c(Cl)cccc1Cl`, the plasma clearance was 0.816 L/h/kg (rat).
`c1ccc2c(c1)ccc1ccccc12` has a logKow of 4.62 (slow stirring).
`CCCCCC(CCC)C(=O)O` (centres unmarked) has an EC10 of 10 µM (pericardial and yolk oedema; zebrafish embryo; nominal concentration).
With `Nc1cc(C(F)(F)F)c(-c2nc(N3CCOCC3)nc(N3CCOCC3)n2)cn1` the remaining activity was 100% (VRK2 (Homo sapiens, UniProt Q86Y07); enzyme activity; 10 µM; relative to: untreated).
`COc1ccc2[nH]c([S+]([O-])Cc3ncc(C)c(OC)c3C)nc2c1` (centres unmarked) has an AUC of 3.74 µg·h/mL (human obese subjects; oral tablet, 20 mg twice daily, day 7).
`CC(C)=CCC/C(C)=C/CC/C(C)=C/CC[C@@](C)(O)CCC1=C(C)C(=O)C(C)=C(C)C1=O` gave an effective half-life of about 9 h (human; oral).
For `CO[C@@H](C)Cn1c(=O)n(C)c2cnc3ccc(-c4cncc(C(C)(C)O)c4)cc3c21`, the oral bioavailability was 66% (dog).
The effective half-life of `CN(C)C(=O)c1cc2cnc(Nc3ccc(N4CCNCC4)cn3)nc2n1C1CCCC1` is reported as 12 to 33.1 h (human; geometric mean all doses).
For `O=C(O)CN(CC(=O)O)CC(=O)O`, “protonation constant (log)” read 2.8 (pH-potentiometry, item: logK2H; 0.15 M NaClO4; 25 °C).
`Nc1nc(=O)n([C@@H]2CS[C@H](CO)O2)cc1F` has a bioavailability of 79% (mouse; 100 mg/kg).
`Cc1cc(C)c(CNC(=O)c2cc(Cl)c3c(c2C)O[C@@](C)([C@H]2CC[C@H](N(C)C)CC2)O3)c(=O)[nH]1`: “serious TEAE incidence” 45.5% (relapsed/refractory ATLL patients; 200 mg/day, added: fluconazole).
Under “TEAE decreased appetite incidence”, `CN[C@@H](C)C(=O)N[C@H]1CN(S(=O)(=O)c2cccc(S(=O)(=O)N3CC[C@H]4CC[C@@H](C(=O)NC(c5ccccc5)c5ccccc5)N4C(=O)[C@@H](NC(=O)[C@H](C)NC)C3)c2)CC[C@H]2CC[C@@H](C(=O)NC(c3ccccc3)c3ccccc3)N2C1=O` is recorded as 13% (advanced solid tumour patients; dose not given, monotherapy).
`CN(CCOc1ccc(NS(C)(=O)=O)cc1)CCc1ccc(NS(C)(=O)=O)cc1` — result for “torsade de pointes incidence”: 3.3% (AF patients; dose not given; relative to: patients).
For `Nc1nc2c(ncn2COCCO)c(=O)[nH]1`, the oral bioavailability was 25% (rat; oral).
`COc1cc2c(Oc3ccc4[nH]c(C)cc4c3F)ccnc2cc1OCC1(N)CC1` gave an oral bioavailability of about 34% (rat; oral).
`Cc1ccsc1C(=CCCN1CCC[C@@H](C(=O)O)C1)c1sccc1C` gave a protective index of 8.6 (mouse; i.p., 6 Hz seizure test, 32 mA).
The oral bioavailability of `C=C1[C@H](CO)[C@@H](O)C[C@@H]1n1cnc2c(=O)[nH]c(N)nc21` is reported as 37 to 80% (rat; 25 mg/kg).
